Assay results of several laboratories.
Every numbered part comes from another study and shows a few of its results, in no order. Changes are numbered by the printed parent chain.

Set 1 — technique: RNA Bind-n-Seq; molecule type: RNA; sample: in vitro; tested at: 200 nM; setting: whole 134-nt RNA, ends assumed; added: 150 mM LiCl; baseline: input library; reading: higher = stronger binding; library: 7-deaza-guanosine replaces G
Target: Fragile X messenger ribonucleoprotein 1, C-terminal low-complexity region (Fmr1, Mus musculus, UniProt P35922)
Constant ends, left off below: GGGAGUUCUACAGUCCGACGAUC … UGGAAUUCUCGGGUGUCAAGG
`UCGGCUACACUGCCCGGAGAAUUCUCAAUGAGGAUGGCAGCCCUAACCUGGACUUCAAGCCUGAAGACCAGCCCCAUUUUGACAUCAAGG` has a log2 enrichment of -1.59.
`UGGCCCUGGUGGCAUGCGGGGAGGAAGAGGUGGCCUCAUGGAUCGUGGUGGUCCCGGUGGAAGGUUCAGAGGUGGCCGUGGUGGAGACAG` has a log2 enrichment of 0.0456.
The log2 enrichment of `CACAGACAACACGCACCCACACAGACACAGAGAGAAGGGGUUGGGAUGGGGACAGGGUGCACAGCAGGGCGGGGUAGGACCCCAGCCCCU` is reported as 0.594.
The log2 enrichment of `AGUCCUGUGCUACACAUCGUAUGUACCGAAUCGGGUUUUUGGUUUUUGGGUUUUUGGAAAGUAUUAUGUUACGCCGUUCGGAUCUGCACU` is reported as -2.07.
For `UCCUCAAGUCCUGUGCUACACAUCGUAUGUACCGAAUCGGUGGUGGUUUGGAAAGUAUUAUGUUACGCCGUUCGGAUCUGCACUUCCAGC`, the log2 enrichment was 0.218.
`CCUGUGCUACACAUCGUAUGUACCGAAUCGGGAAAAAAAGGGAAAAAAAGGAAAAAAAGGAAAGUAUUAUGUUACGCCGUUCGGAUCUGC` has a log2 enrichment of -0.231.
With `UCCUGUGCUACACAUCGUAUGUACCGAAUCAAAGUGUGUGUGUGUGUGUGUGUGUGUAAAAAAGUAUUAUGUUACGCCGUUCGGAUCUGC` the log2 enrichment was -0.601.
For `UUGUGGGAGGAUUUUGAGAUACUUAUUCUUUAUUUGAGCCAGUCUUGCAAGGUUAACUUCUCACUGGGCCUAGUGUGGUGCCCAGGUUUU`, the log2 enrichment was -2.99.
The log2 enrichment of `AGUCCUGUGCUACACAUCGUAUGUACCGAAUCGGGAAAAGGGAAAAGGGGAAAAGGGGAAAGUAUUAUGUUACGCCGUUCGGAUCUGCAC` is reported as 0.176.
For `UCACUUUAGAGGAGGAUCUGAUGGAUAUGGCAGUGGACGUGGAUUUGGGGAUGGCUAUAAUGGGUAUGGAGGAGGACCUGGAGGUGGCAA`, the log2 enrichment was 0.393.
With `UGGGAGGUGGAUUUUGUUUAUUUUUUUAGCUCAUUUCCAGGUGUGGGAAUUUUUUUUUAAUAUGUGUCAUGAAUAAAGUUGUUUUUGAAA` the log2 enrichment was -0.432.

Set 2 — technique: DHFR PCA, deep sequencing; sample: yeast; added: (+)-ABA 0.11 µM; baseline: wild-type fitted maximum; reading: higher = stronger binding
Target: ABI1, truncated, D143A, DHFR fusion (Arabidopsis thaliana)
Setting: methotrexate growth selection, single substitutions
Starting sequence: PYL1, truncated, DHFR fusion (Arabidopsis thaliana); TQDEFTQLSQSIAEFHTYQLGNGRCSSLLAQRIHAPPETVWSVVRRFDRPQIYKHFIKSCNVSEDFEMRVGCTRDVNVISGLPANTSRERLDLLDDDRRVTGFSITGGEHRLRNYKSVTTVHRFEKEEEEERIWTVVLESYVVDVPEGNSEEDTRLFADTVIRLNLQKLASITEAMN
`G71V` — result for “relative binding score”: 0.95%.
For `R163C`, “relative binding score” read -0.437%.
Under “relative binding score”, `S140Y` is recorded as 5.36%.
For `S140R`, “relative binding score” read 6.35%.
Under “relative binding score”, `L93H` is recorded as 5.94%.
Under “relative binding score”, `A175M` is recorded as 22.8%.
`D65C`: “relative binding score” 7.6%.
`D97C` — result for “relative binding score”: 10.3%.
`R99T`: “relative binding score” -9.33%.
`T17V`: “relative binding score” -0.398%.
For `C25E`, “relative binding score” read -2.94%.
`C25W` — result for “relative binding score”: 1.81%.
For `L8G`, “relative binding score” read -0.504%.
`G23L` — result for “relative binding score”: 0.251%.
Under “relative binding score”, `I33M` is recorded as 5.83%.
For `E89F`, “relative binding score” read 2.78%.

Set 3 — technique: protein-binding microarray; molecule type: double-stranded DNA, one strand shown; sample: in vitro; tested at: 940 nM top; setting: 60-bp whole probe; added: salmon DNA 0.4 mg/ml; baseline: random background probes; reading: higher = stronger binding; constant ends, left off below: GCCTAGCAC … GTCTTGATTCGCTTGACGCTGCTG
Target: Interferon regulatory factor 5, full length, phosphomimetic (IRF5, Homo sapiens, UniProt Q13568-2, residues 1-514, S451D/S453D/S456D/S462D)
`TCAGTAAGCAAAAATGAACTGTGCTAG` — result for “fitted relative affinity”: -0.339 z-score.
For `GACGGTATCCTACTGCGGACGTGCTAG`, “fitted relative affinity” read -0.0492 z-score.
`GACGGTCTCCTCATCCTGACGTGCTAG`: “fitted relative affinity” 0.0897 z-score.
`GACGGACTGGGTAACGGGACGTGCTAG` — result for “fitted relative affinity”: -0.51 z-score.
`TCAGGACTGCTACTGCTTTAGTGCTAG`: “fitted relative affinity” -0.58 z-score.
Under “fitted relative affinity”, `GACGGTCTACTACTGCTGACGTGCTAG` is recorded as -0.166 z-score.
`GACGGTTTCGACACTGGGGAGGTGCTA`: “fitted relative affinity” 6.71 z-score.
Under “fitted relative affinity”, `GACGATTTCAGATCCGAGACGTGCTAG` is recorded as -0.0663 z-score.
For `GACGGGCTCGGTATCGGGACGTGCTAG`, “fitted relative affinity” read 0.992 z-score.
Under “fitted relative affinity”, `TTAGATCTCAGCCTCGATTAGTGCTAG` is recorded as 0.0218 z-score.
`TGAGGACTGCTTTTCCTTTAGTGCTAG`: “fitted relative affinity” -0.414 z-score.
For `TTAGGTATCAGGTTTCGGTTAGTGCTA`, “fitted relative affinity” read 6.98 z-score.
For `TTTGATTTCAGACTGGATTAGTGCTAG`, “fitted relative affinity” read -0.203 z-score.
`TTAGATTCCAGTTTCTATTAGTGCTAG` — result for “fitted relative affinity”: 2.99 z-score.
Under “fitted relative affinity”, `TTAGGTCTAGGACTGGGTTAGTGCTAG` is recorded as -0.356 z-score.
`GACGGTATCCTTATCCTGATGTGCTAG` — result for “fitted relative affinity”: 0.141 z-score.
Under “fitted relative affinity”, `TTAGGTCTCGGAATGGGTTAGTGCTAG` is recorded as 2.02 z-score.
`GACGAACTGAGACTAGAGACGTGCTAG`: “fitted relative affinity” -0.342 z-score.
For `TTAGATTTCGGCTTTCGATTAGTGCTA`, “fitted relative affinity” read 2.58 z-score.
`TCAATTATCCTTGTCCCACTGTGCTAG`: “fitted relative affinity” 0.564 z-score.

Set 4 — target: CCNA1, cyclin fold, Cln2 fusion (human); technique: yeast growth competition, sequencing; sample: yeast; setting: weak parent motif; baseline: not given; reading: higher = stronger binding
Starting sequence: SCAPER docking peptide (human); SNARRSLNFGGST
For `L7R`, “normalised enrichment score” read 0.223.
`F9N`: “normalised enrichment score” 0.196.
`S1T` — result for “normalised enrichment score”: 0.768.
Under “normalised enrichment score”, `L7D` is recorded as 0.619.
`T13Y` — result for “normalised enrichment score”: 0.49.
`R5I`: “normalised enrichment score” 0.232.
`S1E` — result for “normalised enrichment score”: 0.159.
Under “normalised enrichment score”, `T13M` is recorded as 0.538.
For `T13W`, “normalised enrichment score” read 0.427.
Under “normalised enrichment score”, `G10A` is recorded as 0.501.
`F9W`: “normalised enrichment score” 0.983.
For `N2S`, “normalised enrichment score” read 0.621.
`S12E`: “normalised enrichment score” 0.959.
Under “normalised enrichment score”, `T13E` is recorded as 0.703.
For `G11H`, “normalised enrichment score” read 0.614.
Under “normalised enrichment score”, `G10F` is recorded as 0.5.
`R5Y`: “normalised enrichment score” 0.265.
For `N2C`, “normalised enrichment score” read 0.389.
For `S6H`, “normalised enrichment score” read 0.519.
`G11K` — result for “normalised enrichment score”: 0.892.
`R5V` — result for “normalised enrichment score”: 0.39.
`G11E` — result for “normalised enrichment score”: 0.551.
`R4Q`: “normalised enrichment score” 0.0779.
`F9E`: “normalised enrichment score” 0.00804.
For `S12F`, “normalised enrichment score” read 0.659.

Set 5 — technique: RNA Bind-n-Seq; molecule type: RNA; sample: in vitro; tested at: not given; baseline: input RNA pool; reading: higher = stronger binding
Target: RING finger protein unkempt homolog, zinc fingers 1-6, GST-SBP tag (UNK, Homo sapiens, UniProt Q9C0B0, residues 30-357)
Sequence of UniProt Q9C0B0 (30-357, looked up): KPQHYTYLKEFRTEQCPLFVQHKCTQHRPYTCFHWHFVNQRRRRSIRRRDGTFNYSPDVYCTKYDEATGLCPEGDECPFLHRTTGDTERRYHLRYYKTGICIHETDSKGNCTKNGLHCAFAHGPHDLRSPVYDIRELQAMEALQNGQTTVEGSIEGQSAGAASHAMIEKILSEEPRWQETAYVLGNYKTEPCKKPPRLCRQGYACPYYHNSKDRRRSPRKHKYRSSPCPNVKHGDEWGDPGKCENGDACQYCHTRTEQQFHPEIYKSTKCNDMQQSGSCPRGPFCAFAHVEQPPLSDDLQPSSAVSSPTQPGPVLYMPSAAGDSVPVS
Setting: RNA with constant flanks, human and mouse sites, ends assumed
Constant ends, left off below: GGGAGUUCUACAGUCCGACGAUC … CAACAGAGGAUUGAGCAUCA
With `CUUAUGAUAAUUACCCCGCGGUGGUGUGUAGAAAAGUAUGUAAAUUUGCUCUGUUUUAAGACUUUGAACUACCUCAAGAAGAGGAAUCUAAUACAAUAUUUGUAAUGUUUCCAGAGCUCU` the bound/input enrichment was 0.801 ratio.
For `ACUUGGAGAGGAUUAUCUUUGAGCCAAGAUUUGGACAGGAGUGAAGUCGGUCCUUAAGAAUUUGUGGCGCGACCGGAGCUGGGCUCCUGACAGGUGGGCUUGUGUUGUGUCCCCUCUGAU`, the bound/input enrichment was 0.271 ratio.
With `AGGGAUCAGUUUGGAUCAAGCCACUCAUUGCCUGAAGUUCAGCAACACAUGAGGGAAGAAUCACGGACUCGAGGCUAUGACCGUGACAUAGCAUUCAUCAUGGAUGACUUCCAACAUGCC` the bound/input enrichment was 0.06 ratio.
For `UUUUUUUUUCCUCUUAACUCUGUCUGCUCUUAAAGCCAGGCAACCCAGUUUGGUCUCAGGCAUAGCCUGAGCAGAUCUUAGUUUUGCCCCCACCACCAUAGUUUUGUGCUAUCCUAGUUU`, the bound/input enrichment was 6.34 ratio.
With `AAAAAGCAGCUAAGGUUUUUACAAAGGGGAAAUGAGAACAAAAUGCUAGCUACAUCUGUAUAGCUGAACUUUUAUAUGGUCCUCGCUGUCCUCUCUCUGCUCUGCUGUCCCCAGUGGUCA` the bound/input enrichment was 0.244 ratio.
With `GGUACCAGAUUUUCAGGGGUUGAUAUGAAUGCUGCUAGGCUUUUAUUCCACAAACUUAUACAACCUGAUCAUCCGCAGAUAUCUCAGCAGGUGGCAGCUAGUUUGGAAAAGAAUCUUAUU` the bound/input enrichment was 0.162 ratio.
The bound/input enrichment of `UUAAUGUGCAUUAUUAAAAAUAUUGAGUGAAGCUAAUUGUCAACUUUAUUAAGGAUUACUUUGUCUGCCCACCACCUAGUGUAAAAUAAAAUCAAGUAAUACAAUCUUAACUGUUGUGGC` is reported as 6.37 ratio.
With `AUAGUAUGUUCUCCUGUUCCUAUGUUAAGGGAUCUGACACAGAACACUGUAGUCAGUAUUAAUUUUAAAGACCCACAGUUUGCUGAAGAUUACAUUUUUAAAGCUGUAAUGCUUCCAGGA` the bound/input enrichment was 0.332 ratio.
The bound/input enrichment of `UCUGGCGUGCCCCUCUUUUAUUUCUUCAACUGGAAUUUUCUCCUUCUACGCACCCUGCAGUUAGUCCUCGAAAGCAUGGACUCAUGGCUGUCGCCAACCCCACUGACACAGUCUGUCCUA` is reported as 0.458 ratio.
With `CCUUAUGUCUAUGUGGAAAUCCACGGAAUUCCUGCCGACUGCGCGGAGCAAAGGACAAAAACGGUGAACCAGAAUGGAGAUGCUCCUAUUUUUGACGAGAGCUUUGAGUUUCAGAUUAAC` the bound/input enrichment was 0.114 ratio.
For `GCUGAAAAUGAAGAAGAGGCAGCUGAUGUCUGGUACAACUUGGGACAUGUAGCUGUGGGAAUAGGAGAUACAAAUUUGGCCCAUCAGUGCUUCAGGCUGGCUCUGGUCAACAACAACAAC`, the bound/input enrichment was 0.897 ratio.

Mixed results
`PhoQ, residues 284 288 289 292 302 303 SSTLLI` has a fold induction of 7.07 (PhoP, residues 12 14 15 18 19 LYFRQ (Escherichia coli, UniProt P23836); Sort-seq, item: YFP reporter; E. coli; PhoQ-PhoP variant library, added: 10 µM Mg2+; baseline: high Mg2+ state, higher = stronger signaling).

Repeated from above (set 3):
Under “fitted relative affinity”, `GACGGTCTACTACTGCTGACGTGCTAG` is recorded as -0.166 z-score.
`TCAATTATCCTTGTCCCACTGTGCTAG`: “fitted relative affinity” 0.564 z-score.
`GACGGTTTCGACACTGGGGAGGTGCTA`: “fitted relative affinity” 6.71 z-score.
Under “fitted relative affinity”, `TTAGATCTCAGCCTCGATTAGTGCTAG` is recorded as 0.0218 z-score.
`TCAGGACTGCTACTGCTTTAGTGCTAG`: “fitted relative affinity” -0.58 z-score.
For `GACGGTATCCTACTGCGGACGTGCTAG`, “fitted relative affinity” read -0.0492 z-score.
